Measurements gathered from unrelated publications.
Parts stem from different laboratories: compare values within a part only. “And” joins repeats or separate records; there may be more than shown.
Sequence of UniProt Q6PHR2 (whole entry, looked up): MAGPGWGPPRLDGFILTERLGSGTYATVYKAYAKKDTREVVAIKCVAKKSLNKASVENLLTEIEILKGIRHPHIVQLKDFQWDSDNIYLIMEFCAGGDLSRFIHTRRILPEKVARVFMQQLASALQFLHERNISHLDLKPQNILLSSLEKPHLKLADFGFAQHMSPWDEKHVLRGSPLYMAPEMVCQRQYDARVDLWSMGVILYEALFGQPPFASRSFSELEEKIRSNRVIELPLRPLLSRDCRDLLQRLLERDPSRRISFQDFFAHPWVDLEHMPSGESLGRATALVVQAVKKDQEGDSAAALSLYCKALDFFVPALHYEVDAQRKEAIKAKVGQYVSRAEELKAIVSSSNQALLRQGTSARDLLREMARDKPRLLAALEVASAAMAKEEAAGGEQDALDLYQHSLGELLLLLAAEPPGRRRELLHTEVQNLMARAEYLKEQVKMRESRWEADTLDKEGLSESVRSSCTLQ
Sequence of UniProt P45984 (whole entry, looked up): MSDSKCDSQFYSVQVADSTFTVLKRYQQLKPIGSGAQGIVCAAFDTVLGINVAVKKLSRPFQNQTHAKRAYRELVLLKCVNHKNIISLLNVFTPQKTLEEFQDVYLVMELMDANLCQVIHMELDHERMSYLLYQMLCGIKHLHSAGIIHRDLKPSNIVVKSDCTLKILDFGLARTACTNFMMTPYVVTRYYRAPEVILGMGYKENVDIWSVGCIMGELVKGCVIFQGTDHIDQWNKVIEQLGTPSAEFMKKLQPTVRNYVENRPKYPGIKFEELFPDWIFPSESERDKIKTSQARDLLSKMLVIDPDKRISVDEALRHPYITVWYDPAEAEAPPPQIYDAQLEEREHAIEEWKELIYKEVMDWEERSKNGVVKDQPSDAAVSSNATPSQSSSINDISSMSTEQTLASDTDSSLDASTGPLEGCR
Sequence of UniProt Q7KZI7 (whole entry, looked up): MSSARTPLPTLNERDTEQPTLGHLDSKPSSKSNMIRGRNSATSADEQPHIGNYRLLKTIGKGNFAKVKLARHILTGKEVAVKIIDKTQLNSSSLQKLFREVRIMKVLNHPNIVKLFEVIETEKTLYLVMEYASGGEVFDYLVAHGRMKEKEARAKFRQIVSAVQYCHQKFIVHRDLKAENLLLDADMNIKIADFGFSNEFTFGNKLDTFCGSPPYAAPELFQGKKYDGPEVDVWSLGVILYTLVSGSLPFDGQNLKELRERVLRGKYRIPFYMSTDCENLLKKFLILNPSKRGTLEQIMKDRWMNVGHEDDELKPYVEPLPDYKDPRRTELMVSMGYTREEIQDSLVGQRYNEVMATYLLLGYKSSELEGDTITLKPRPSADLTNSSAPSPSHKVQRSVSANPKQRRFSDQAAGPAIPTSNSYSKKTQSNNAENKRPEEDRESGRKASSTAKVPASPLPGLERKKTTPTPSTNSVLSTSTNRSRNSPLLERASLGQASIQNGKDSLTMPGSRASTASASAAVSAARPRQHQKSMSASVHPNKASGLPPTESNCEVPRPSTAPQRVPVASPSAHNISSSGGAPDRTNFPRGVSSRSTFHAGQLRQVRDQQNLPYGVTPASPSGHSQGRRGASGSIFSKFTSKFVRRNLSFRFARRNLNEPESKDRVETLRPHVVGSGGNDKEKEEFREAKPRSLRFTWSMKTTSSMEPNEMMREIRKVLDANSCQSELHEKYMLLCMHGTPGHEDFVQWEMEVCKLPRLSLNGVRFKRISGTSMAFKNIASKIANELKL
Sequence of UniProt Q8NI60 (whole entry, looked up): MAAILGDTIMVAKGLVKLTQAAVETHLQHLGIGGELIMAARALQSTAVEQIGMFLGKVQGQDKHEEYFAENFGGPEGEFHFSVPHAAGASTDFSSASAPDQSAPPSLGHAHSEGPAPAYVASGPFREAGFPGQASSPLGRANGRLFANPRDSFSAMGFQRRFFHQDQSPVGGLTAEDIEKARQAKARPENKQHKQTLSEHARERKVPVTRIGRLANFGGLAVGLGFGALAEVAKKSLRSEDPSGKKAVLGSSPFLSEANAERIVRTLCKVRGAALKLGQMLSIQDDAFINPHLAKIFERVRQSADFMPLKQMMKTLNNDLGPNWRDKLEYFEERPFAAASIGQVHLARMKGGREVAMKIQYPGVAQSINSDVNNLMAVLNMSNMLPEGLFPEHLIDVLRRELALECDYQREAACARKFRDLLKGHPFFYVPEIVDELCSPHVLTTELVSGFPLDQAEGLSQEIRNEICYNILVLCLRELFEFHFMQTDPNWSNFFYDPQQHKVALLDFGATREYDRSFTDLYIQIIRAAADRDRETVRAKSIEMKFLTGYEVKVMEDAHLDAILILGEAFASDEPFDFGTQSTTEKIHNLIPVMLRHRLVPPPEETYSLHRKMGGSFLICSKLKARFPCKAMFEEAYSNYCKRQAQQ

Study 1
Technique: PRP chromatography
Notes: linear fit, 1 mL
Measurement: logD 1,9-decadiene/water
CC(C)C[C@@H]1NC(=O)[C@H](C)NC(=O)[C@@H](Cc2cscn2)NC(=O)[C@@H](CC(C)C)NC(=O)[C@H](C)NC(=O)[C@H](CC(C)C)NC(=O)[C@H](CC(C)C)NC1=O: -1.68 log units
CC(C)C[C@@H]1NC(=O)[C@H](C)NC(=O)[C@H](Cc2cscn2)NC(=O)[C@@H](CC(C)C)NC(=O)[C@H](C(C)C)NC(=O)[C@H](CC(C)C)NC(=O)[C@@H](CC(C)C)NC1=O: -1.67 log units
CC(C)C[C@@H]1NC(=O)[C@H](CC(C)C)NC(=O)[C@H](CC(C)C)NC(=O)[C@H](C(C)C)NC(=O)[C@@H](CCC(=O)N2CCCC2)NC(=O)[C@H](Cc2cscn2)NC(=O)[C@H](C)NC1=O: -4.41 log units

Study 2
Structure (SMILES): CS(=O)(=O)N1CCCC(NC(=O)[C@H](CCC2CCCCC2)NC(=O)c2ccc(CNc3ncnc4c3nnn4-c3ccccc3)cc2)C1 (some centres unmarked)
Observed: cell-free assay
Technique: competition with immobilised ligand
Concentration: 0.1 µM
Measurement: remaining binding
MAPK9 (Homo sapiens, UniProt P45984): 83%
MARK2 (Homo sapiens, UniProt Q7KZI7): 100%
COQ8A (Homo sapiens, UniProt Q8NI60): 97%
EGFR (Homo sapiens, UniProt P00533, T790M): 100%
ULK3 (Homo sapiens, UniProt Q6PHR2): 99%

Study 3
Cell line: HaCaT
Concentration: 100 µM
Time: 36 h
Measurement: viability
O=C(NCCN1CCOCC1)c1ccc(Cl)cc1: 100%
O=C(O)CCc1nc2ccccc2[nH]1: 95.3%
O=C(O)CCC(=O)c1ccc(-c2ccccc2)cc1: 85%
CCOc1nc2cccc(C(=O)O)c2n1Cc1ccc(-c2ccccc2-c2nnn[nH]2)cc1: 95.7%
CCn1cc(C(=O)O)c(=O)c2cc(F)c(N3CCNCC3)nc21: 45.8% and 110%
CCn1cc(C(=O)O)c(=O)c2cnc(N3CCNCC3)nc21: 100%

Study 4
Target: Epidermal growth factor receptor (EGFR, Homo sapiens, UniProt P00533)
Observed: enzyme activity
Mode: inhibitor
Concentration: 0.5 µM
Baseline: control
Measurement: remaining activity
CCCNC(=O)Nc1ccc(Oc2ncnc3cc(OC)c(OC)cc23)cc1Cl: 88.1%
O=C1NC(=O)c2c1c1c3ccccc3[nH]c1n1cncc21: 92.7%
O=C(O)/C=C/c1cc(Br)c(Br)c(Br)c1Br: 98.4%
CC(C)N(CCC(=O)c1ccc2ccccc2c1)Cc1ccccc1: 99.4%
O=Nc1c(-c2c(O)[nH]c3ccccc23)[nH]c2ccccc12: 97.1%
CN1CCN(c2ccc3nc(-c4c(N)c5c(F)cccc5[nH]c4=O)[nH]c3c2)CC1: 97.2%
COc1ccc2c(c1)c(C1=C(c3c[nH]c4ccccc34)C(=O)NC1=O)cn2CCCN(C)C: 92.6%
N#C/C(=C(/N)SC1C=CC=CC1)c1cccc(C(O)c2ccncc2)c1 (centres unmarked): 94.9%
FC(F)(F)c1ccc(/C=C/c2nc(COc3ccc(CCCCn4ccnn4)cc3)co2)cc1: 97.7%
O=C(c1cc2cc(O)ccc2[nH]1)c1cc2cc(O)ccc2[nH]1: 97.6%
c1cc(-c2cnn3cc(-c4ccc(OCCN5CCCCC5)cc4)cnc23)ccn1: 100%
CCCCc1c(-c2ccc(OC)cc2)[nH]c2nccnc12: 103%
Cc1cc(Nc2cc(N3CCN(C)CC3)nc(Sc3ccc(NC(=O)C4CC4)cc3)n2)[nH]n1: 93.7%
CC(C)n1cnc2c(Nc3cccc(Cl)c3)nc(NCCO)nc21: 91.5%
O=C(c1ccccc1)c1ccc(N2CCOCC2)cc1O: 94.9%

Study 5
Cell line: mouse MPNST tumor cells
Technique: high-content nuclear imaging
Measured: cell number
Concentration: 10 µM
Time: 12 h
Notes: mean of 2 replicates
Baseline: plate mean
Reading: higher = more cells
Measurement: nuclei count
Cn1c(=O)c2c(ncn2CC2OCCO2)n(C)c1=O: 0.888 z-score
Cc1ccc(-c2csc3ncnc(SCCC(=O)O)c23)cc1: 2.66 z-score
OCCN1CCN(CC/C=C2/c3ccccc3Sc3ccc(Cl)cc32)CC1: -4.37 z-score
